Measurements gathered from unrelated publications.
Protocols differ between the studies behind these lines. ± marks the error that the study gave.
Medium: plasma

SMILES	system	conditions	measurement	value
NCCCS(=O)(=O)O	human, both sexes	oral, 100 mg, modified-release tablet	elimination rate constant	5.07e-05 ± 2.85e-05 s⁻¹
O=C(Nc1c(Cl)cncc1Cl)c1ccc(OC(F)F)c(OCC2CC2)c1	human adolescents	topical, 0.3% cream once daily, 14 days	elimination half-life	69.6 h
CCOC(=O)C1=C[C@@H](OC(CC)CC)[C@H](NC(C)=O)[C@@H](N)C1	healthy Indian human	oral, 75 mg single, Tamiflu reference capsule fed	elimination rate constant	5.44e-05 ± 2.83e-05 s⁻¹
Br.Cc1ccc(Sc2ccccc2N2CCNCC2)c(C)c1	healthy humans	oral, mean, population PK model	elimination half-life	65.8 h
CC(C)C[C@H](NC(=O)[C@H](CCc1ccccc1)NC(=O)CN1CCOCC1)C(=O)N[C@@H](Cc1ccccc1)C(=O)N[C@@H](CC(C)C)C(=O)[C@@]1(C)CO1	human patients	intravenous infusion 10 min, 27 mg/m^2, day 16 of cycle 1, KRd regimen	elimination half-life	0.74 ± 0.272 h
O=C(Nc1c(Cl)c[n+]([O-])cc1Cl)c1ccc(OC(F)F)c(OCC2CC2)c1	human adults	topical, 0.3% roflumilast cream once daily, 14 days	elimination half-life	110 h
Cc1cccc(C)c1N(CC(=O)Nc1ccc(-c2ncon2)cc1)C(=O)C1CCS(=O)(=O)CC1	human male	geometric mean, together with: ritonavir single dose 600 mg	elimination half-life	12 to 13 h
CCOc1ccc(Cc2cc([C@@H]3S[C@H](CO)[C@@H](O)[C@H](O)[C@H]3O)c(OC)cc2C)cc1	human	oral, 10 mg/day, day 7, multiple dose before breakfast	elimination rate constant	2.13e-05 ± 2.49e-06 s⁻¹

Some of these lines once more:
SMILES	system	conditions	measurement	value
O=C(Nc1c(Cl)cncc1Cl)c1ccc(OC(F)F)c(OCC2CC2)c1	human adolescents	topical, 0.3% cream once daily, 14 days	elimination half-life	69.6 h
